Assay results collected from several papers.
Numbered parts are unrelated; each lists some results of a single study.

Sample 1 — method: protein binding microarray; molecule type: double-stranded DNA, one strand shown; matrix: in vitro; concentration: not given; baseline: not given; reading: higher = stronger binding
Target: Histone acetyltransferase KAT6A, both winged helices, GST fusion (KAT6A, Homo sapiens, UniProt Q92794, residues 1-181)
Notes: 8-mer, flanks averaged, mean of 2 arrays, mostly near background
Construct (chain): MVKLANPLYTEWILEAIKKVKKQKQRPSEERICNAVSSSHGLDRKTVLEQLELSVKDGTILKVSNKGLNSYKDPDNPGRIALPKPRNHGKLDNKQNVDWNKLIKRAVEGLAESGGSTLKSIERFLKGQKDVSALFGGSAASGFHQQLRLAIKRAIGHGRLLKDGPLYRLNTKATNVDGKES
Strand	E-score
CGCCTGAC	0.0645
ATCACCGG	0.157
GTGGCATA	-0.145

Sample 2 — method: universal PBM; molecule type: double-stranded DNA, one strand shown; matrix: in vitro; concentration: 600 nM; reading: higher = stronger binding
Target: Sal-like protein 4, full length isoform A (SALL4, Homo sapiens, UniProt Q9UJQ4, residues 1-1053)
Sequence of UniProt Q9UJQ4 (whole entry, looked up): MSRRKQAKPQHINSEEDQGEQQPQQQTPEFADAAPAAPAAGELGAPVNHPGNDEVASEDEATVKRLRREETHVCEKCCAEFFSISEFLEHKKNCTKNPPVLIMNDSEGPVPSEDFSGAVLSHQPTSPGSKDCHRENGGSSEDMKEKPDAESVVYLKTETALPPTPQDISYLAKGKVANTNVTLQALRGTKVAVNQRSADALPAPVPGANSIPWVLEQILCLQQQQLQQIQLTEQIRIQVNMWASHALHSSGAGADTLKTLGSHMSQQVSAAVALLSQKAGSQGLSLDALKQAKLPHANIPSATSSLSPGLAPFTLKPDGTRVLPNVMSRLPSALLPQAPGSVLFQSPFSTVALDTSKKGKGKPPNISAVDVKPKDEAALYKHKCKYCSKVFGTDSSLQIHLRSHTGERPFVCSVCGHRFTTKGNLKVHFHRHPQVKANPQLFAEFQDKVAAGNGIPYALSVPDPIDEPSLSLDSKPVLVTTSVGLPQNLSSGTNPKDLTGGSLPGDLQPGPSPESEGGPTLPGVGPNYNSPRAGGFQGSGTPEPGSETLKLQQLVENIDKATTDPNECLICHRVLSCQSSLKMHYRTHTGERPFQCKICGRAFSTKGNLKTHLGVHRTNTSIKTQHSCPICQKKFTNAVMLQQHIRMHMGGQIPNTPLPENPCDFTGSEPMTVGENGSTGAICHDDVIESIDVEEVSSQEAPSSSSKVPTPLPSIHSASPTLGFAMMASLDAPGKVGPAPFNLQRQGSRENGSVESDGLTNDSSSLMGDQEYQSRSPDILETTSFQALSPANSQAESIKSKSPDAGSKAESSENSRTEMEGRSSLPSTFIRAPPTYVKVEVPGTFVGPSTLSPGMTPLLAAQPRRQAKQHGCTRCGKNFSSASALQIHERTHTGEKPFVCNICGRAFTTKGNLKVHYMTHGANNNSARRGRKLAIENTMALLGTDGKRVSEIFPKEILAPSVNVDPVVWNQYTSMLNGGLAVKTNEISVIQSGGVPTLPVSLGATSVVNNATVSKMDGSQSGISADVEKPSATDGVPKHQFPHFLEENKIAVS
Notes: 8-mer, flanks averaged, mean of replicates
Strand	E-score
CTAACAGC	-0.0735
GGCATATA	0.325
CGGAGCGA	-0.0315

Other studies, line by line
IRF5 K96S/S451D/S453D/S456D/S462D full length, phosphomimetic: Interferon regulatory factor 5, full length, phosphomimetic (IRF5, Homo sapiens, UniProt Q13568-2, residues 1-514, K96S/S451D/S453D/S456D/S462D)
Molecule	target	test	system	setting	scale	quantity	result
GCCTAGCACGTAGATATCGGGTTTCGATTAGTGCTAGTCTTGATTCGCTTGACGCTGCTG	IRF5 K96S/S451D/S453D/S456D/S462D full length, phosphomimetic	protein-binding microarray	double-stranded DNA, one strand shown, in vitro	250 nM, 60-bp whole probe, added: salmon DNA 0.4 mg/ml	baseline: random background probes, higher = stronger binding	log fluorescence	7.62 z-score
PhoQ, residues 284 288 289 292 302 303 AQGLTV	PhoP, residues 12 14 15 18 19 SPWRL (Escherichia coli, UniProt P23836)	Sort-seq, refers to: YFP reporter	E. coli	PhoQ-PhoP variant library, added: 10 µM Mg2+	baseline: high Mg2+ state, higher = stronger signaling	fold induction	0.663
GCCTAGCACAATGATTGGTTGAACATGAAGTGCTAGGTCTTGATTCGCTTGACGCTGCTG	IRF5 K96S/S451D/S453D/S456D/S462D full length, phosphomimetic	protein-binding microarray	double-stranded DNA, one strand shown, in vitro	250 nM, 60-bp whole probe, added: salmon DNA 0.4 mg/ml	baseline: random background probes, higher = stronger binding	log fluorescence	0.206 z-score
